Results collected from several papers.
A part holds a random share of what one study measured.

Set 1 — method: aptamer microarray, sandwich; molecule type: DNA with 2'F-ANA; medium: in vitro; tested at: 200 nM; together with: Cy3 exosite-II aptamer, 400 nM; reading: higher = stronger binding; sequence: GGTTGGTGTGGTTGG
Target: Prothrombin, mature alpha-thrombin (F2, Homo sapiens, UniProt P00734)
Setting: whole 15-mer aptamer, many near background
Modification	mean fluorescence intensity
2'F-ANA at 1 4 5 7 8 9 10 11 13 15	49.2 a.u.
2'F-ANA at 1 6 9 10 11 13 14	84.5 a.u.
2'F-ANA at 3 7 8 9 12 13 14	738 a.u.
2'F-ANA at 1 3 4 5 8 10 12 14	45.2 a.u.
2'F-ANA at 1 4 9 10 11 12 14	44 a.u.
2'F-ANA at 2 6 14	136 a.u.
2'F-ANA at 1 3 5 6 7 9 10 12 14	48.4 a.u.
2'F-ANA at 2 3 4 7 10 12 15	344 a.u.
2'F-ANA at 1 3 6 8 11 12 13 14	109 a.u.
2'F-ANA at 1 3 7 9 10 11 15	78.7 a.u.
2'F-ANA at 1 2 4 5 11 13	70.1 a.u.
2'F-ANA at 3 4 9 10 11 12 14	197 a.u.
2'F-ANA at 7 8 9 10 11 12 15	206 a.u.
2'F-ANA at 1 3 4 6 8 15	251 a.u.
2'F-ANA at 2 3 4 5 13 14 15	51.7 a.u.
2'F-ANA at 1 2 8 11 12 13	320 a.u.
2'F-ANA at 2 3 4 5 7 10 11 12 13 14 15	47.6 a.u.
2'F-ANA at 3 4 5 7 10 12 13 15	79 a.u.
2'F-ANA at 4 10 11 13 15	124 a.u.
2'F-ANA at 2 3 4 6 7 10 11 13 15	181 a.u.

Set 2 — cell line: yeast with cyclin E2-Cln2 chimera; effect on: cell growth; mode: binder; method: competitive growth deep sequencing; molecule type: peptide; tested at: concentration not given; setting: peptide tiling library; reading: direction not given
Molecule	growth enrichment score
PFSENVSAVQKLDFSD	0.583
RVSGLLSWTLSRVLWL	-0.0181
NEGVSNAVRRSLYIRD	-0.232
DSGFCLDSPGPLDSKE	-0.0902
SPPRGRRLFPPGPAGF	-0.744
LKGRRLVFDN	-0.529
KVKRRLDLDIDGLQKE	1.35
KSKHEEEEWTDDDLVE	0.639
NSMKELNFSHLPSNSV	0.266
RQVRRDLFAF	0.9
SMTDFYHSKRRLIFSK	-0.607
KRRLDLETDHQY	0.9
RRRIKLPESDSSED	1.15
GFGFLLFICKLTF	0.226
TTTTSPRTPPPLTVQD	0.335

Set 3 — method: RNA Bind-n-Seq; molecule type: RNA; medium: in vitro; tested at: 365 nM; reference: no-protein control; reading: higher = stronger binding
Target: RNA binding protein fox-1 homolog 2, RRM domain, GST-SBP tag (RBFOX2, Homo sapiens, UniProt O43251-10, residues 100-194)
Setting: natural RNA segment, single round, ends assumed
Constant ends, left off below: GGGAGUUCUACAGUCCGACGAUC … UGGAAUUCUCGGGUGCCAA
Construct (chain): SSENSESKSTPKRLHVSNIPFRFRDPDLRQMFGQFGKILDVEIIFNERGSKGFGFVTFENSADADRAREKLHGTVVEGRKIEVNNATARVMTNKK
Sequence	RBNS enrichment (R)
AUUUUUUUAGGCUAUAGAAUGAUAUUACAGGUCCCAUGUUGGCUGGAUGGUUGCGUGAGUUUUCGUGUGGCUGAAGAGGCUGCUGCCCUCUUACCUUGCCCUGUUCCCGG	0.639
GUCCCUUGUUCUUCGUUCUGCUGCUUUGCCCCUUCCUUCCCUCUUCAUGGAGUGAUUAUGUUGAUAAUAAUGUGUAAUGCGCGUUCUUUUCACUGGUUUAUCUACAGAAA	0.325
GCUUCAGCAUUGUGCAGUUUAAAAAUAAGUAAGUAACUUACAUAAAUCUUCAAUUGUAUGAACUGCAGCUUUGAGUCCAUUUUUUUCCAGUGGUGAAGAAUUGGCGGGGG	0.42
GUUUAAAUUUCCCUUAUAUUUCCACCUGUAAUGUCAGUGGCAACAACAUCAUACUUCACUUACUUGUUAAUUUACUUUUUACCCUUAUUCUAAGAGCAAGUUGAGUUGAA	0.723
CCGUGUCUACACGAAGCACCCAGUUGACAUCCGACUUGUUUUUGAGACGGGGGUCUCACUUAGCUGUGAGUGGCCUUGAACUGACCCUUCCACCUUCAUUUCCCAAGUGC	0.38
GGGCCUGCCUCUGACCUGCCGUGUCCUUUGCAGGAAGGAGGUAGGCACCUUUCUGAGCUUAUUCUAUUCCCCACCCACACCCCCAGGCAGGGUUGGAAAUGAAGGACUUU	0.284
AGGAUUAAUUAACAAGUUAAUUUUAAGGUGGCCACUGUACACUGCUCUAAAGUCAUAUCCCCUCCCCGCCCCCAGUCAUCAUGGAAGUAACCACUACAAAGAGAUAACAC	0.277
CGAGGCCUUUGCCUGGGUCUGAAGGUCUUGGCCAGAGGAACACCAUCAUCAGUCAAGGGGUCUGGCCGCAGGCUCCCCUGUGAGCAAAUGCAGGGAAUCCGAGCAGAACA	0.467

Set 4 — method: protein binding microarray; molecule type: double-stranded DNA, one strand shown; medium: in vitro; tested at: not given; reference: not given; reading: higher = stronger binding
Target: Histone acetyltransferase KAT6A, winged helix 1, GST fusion (KAT6A, Homo sapiens, UniProt Q92794, residues 1-85)
Setting: 8-mer, flanks averaged, mean of 2 arrays, mostly near background
Residues (chain): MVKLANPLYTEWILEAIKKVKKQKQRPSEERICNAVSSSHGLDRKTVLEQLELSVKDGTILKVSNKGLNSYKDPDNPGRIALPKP
Sequence	E-score
GACTAGGA	-0.165
ATCCTAAC	-0.0681
AGTGCATG	-0.203
ATGACAAT	-0.243
AGTTACCC	-0.179
CTTACAGA	-0.0919
CTAATTCC	-0.143
ACTGAGCT	0.0057
CGGGGCTC	0.223
CACTCAGC	-0.136
ACGCGGCA	0.406
ACTCTGCC	-0.0593
CGGTCACA	0.149
ATTACCTA	-0.0715
GCCGGAGC	0.335
ATCCTGCA	-0.292
CATAACCG	0.00118
AAACTTTC	-0.108
CCCGTTCG	0.215
GAGCTGAC	-0.118
GCCCTATA	-0.0115

A few entries again (set 1):
Modification	mean fluorescence intensity
2'F-ANA at 2 3 4 5 7 10 11 12 13 14 15	47.6 a.u.
2'F-ANA at 3 7 8 9 12 13 14	738 a.u.
2'F-ANA at 1 3 6 8 11 12 13 14	109 a.u.
2'F-ANA at 1 2 8 11 12 13	320 a.u.
2'F-ANA at 2 6 14	136 a.u.
2'F-ANA at 4 10 11 13 15	124 a.u.
2'F-ANA at 3 4 5 7 10 12 13 15	79 a.u.
2'F-ANA at 3 4 9 10 11 12 14	197 a.u.
